Measurements collected from several papers.
Every numbered part comes from another study and shows a few of its results, in no order. “And” joins repeats or separate records; there may be more than shown.
Sequence of UniProt P35626 (whole entry, looked up): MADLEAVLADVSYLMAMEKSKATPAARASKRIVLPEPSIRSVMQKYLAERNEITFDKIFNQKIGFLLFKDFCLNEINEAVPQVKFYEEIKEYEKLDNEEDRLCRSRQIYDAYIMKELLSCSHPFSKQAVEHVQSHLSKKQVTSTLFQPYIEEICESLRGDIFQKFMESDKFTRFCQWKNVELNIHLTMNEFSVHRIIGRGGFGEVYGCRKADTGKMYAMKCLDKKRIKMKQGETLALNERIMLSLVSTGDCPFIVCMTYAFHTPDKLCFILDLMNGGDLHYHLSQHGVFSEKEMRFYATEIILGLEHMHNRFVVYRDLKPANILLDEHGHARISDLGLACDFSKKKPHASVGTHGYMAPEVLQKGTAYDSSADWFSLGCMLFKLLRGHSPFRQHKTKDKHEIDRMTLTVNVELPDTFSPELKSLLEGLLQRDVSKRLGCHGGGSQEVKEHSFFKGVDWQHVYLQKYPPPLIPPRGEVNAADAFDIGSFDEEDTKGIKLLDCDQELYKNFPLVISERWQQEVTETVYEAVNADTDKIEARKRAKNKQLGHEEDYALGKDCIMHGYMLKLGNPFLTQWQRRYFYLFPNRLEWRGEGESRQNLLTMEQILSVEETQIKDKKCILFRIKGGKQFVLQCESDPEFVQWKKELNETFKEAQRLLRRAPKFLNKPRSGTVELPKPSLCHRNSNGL
Sequence of UniProt Q14680 (whole entry, looked up): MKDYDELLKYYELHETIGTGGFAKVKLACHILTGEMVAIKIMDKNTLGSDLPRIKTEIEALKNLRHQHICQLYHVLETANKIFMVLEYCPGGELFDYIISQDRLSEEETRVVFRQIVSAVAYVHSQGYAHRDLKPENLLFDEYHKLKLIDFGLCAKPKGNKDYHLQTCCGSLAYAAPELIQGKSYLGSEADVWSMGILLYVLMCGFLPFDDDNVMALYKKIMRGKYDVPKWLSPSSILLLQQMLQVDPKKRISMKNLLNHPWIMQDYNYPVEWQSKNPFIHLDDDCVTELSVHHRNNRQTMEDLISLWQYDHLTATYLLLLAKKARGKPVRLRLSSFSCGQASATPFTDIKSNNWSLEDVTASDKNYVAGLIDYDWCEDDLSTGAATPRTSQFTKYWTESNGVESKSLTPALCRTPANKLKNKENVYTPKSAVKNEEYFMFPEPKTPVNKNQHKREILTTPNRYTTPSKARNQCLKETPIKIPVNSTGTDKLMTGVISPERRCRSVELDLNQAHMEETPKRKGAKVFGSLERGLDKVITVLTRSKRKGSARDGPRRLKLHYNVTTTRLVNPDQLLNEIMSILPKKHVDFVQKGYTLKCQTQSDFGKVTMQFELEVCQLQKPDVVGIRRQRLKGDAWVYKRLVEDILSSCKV

Series 1 — effect on: enzyme activity; mode: inhibitor; tested at: 77 µM; relative to: untreated
Target: DNA polymerase theta, ATPase domain (POLQ, Homo sapiens, UniProt O75417)
Sequence of UniProt O75417 (whole entry, unmodified, looked up): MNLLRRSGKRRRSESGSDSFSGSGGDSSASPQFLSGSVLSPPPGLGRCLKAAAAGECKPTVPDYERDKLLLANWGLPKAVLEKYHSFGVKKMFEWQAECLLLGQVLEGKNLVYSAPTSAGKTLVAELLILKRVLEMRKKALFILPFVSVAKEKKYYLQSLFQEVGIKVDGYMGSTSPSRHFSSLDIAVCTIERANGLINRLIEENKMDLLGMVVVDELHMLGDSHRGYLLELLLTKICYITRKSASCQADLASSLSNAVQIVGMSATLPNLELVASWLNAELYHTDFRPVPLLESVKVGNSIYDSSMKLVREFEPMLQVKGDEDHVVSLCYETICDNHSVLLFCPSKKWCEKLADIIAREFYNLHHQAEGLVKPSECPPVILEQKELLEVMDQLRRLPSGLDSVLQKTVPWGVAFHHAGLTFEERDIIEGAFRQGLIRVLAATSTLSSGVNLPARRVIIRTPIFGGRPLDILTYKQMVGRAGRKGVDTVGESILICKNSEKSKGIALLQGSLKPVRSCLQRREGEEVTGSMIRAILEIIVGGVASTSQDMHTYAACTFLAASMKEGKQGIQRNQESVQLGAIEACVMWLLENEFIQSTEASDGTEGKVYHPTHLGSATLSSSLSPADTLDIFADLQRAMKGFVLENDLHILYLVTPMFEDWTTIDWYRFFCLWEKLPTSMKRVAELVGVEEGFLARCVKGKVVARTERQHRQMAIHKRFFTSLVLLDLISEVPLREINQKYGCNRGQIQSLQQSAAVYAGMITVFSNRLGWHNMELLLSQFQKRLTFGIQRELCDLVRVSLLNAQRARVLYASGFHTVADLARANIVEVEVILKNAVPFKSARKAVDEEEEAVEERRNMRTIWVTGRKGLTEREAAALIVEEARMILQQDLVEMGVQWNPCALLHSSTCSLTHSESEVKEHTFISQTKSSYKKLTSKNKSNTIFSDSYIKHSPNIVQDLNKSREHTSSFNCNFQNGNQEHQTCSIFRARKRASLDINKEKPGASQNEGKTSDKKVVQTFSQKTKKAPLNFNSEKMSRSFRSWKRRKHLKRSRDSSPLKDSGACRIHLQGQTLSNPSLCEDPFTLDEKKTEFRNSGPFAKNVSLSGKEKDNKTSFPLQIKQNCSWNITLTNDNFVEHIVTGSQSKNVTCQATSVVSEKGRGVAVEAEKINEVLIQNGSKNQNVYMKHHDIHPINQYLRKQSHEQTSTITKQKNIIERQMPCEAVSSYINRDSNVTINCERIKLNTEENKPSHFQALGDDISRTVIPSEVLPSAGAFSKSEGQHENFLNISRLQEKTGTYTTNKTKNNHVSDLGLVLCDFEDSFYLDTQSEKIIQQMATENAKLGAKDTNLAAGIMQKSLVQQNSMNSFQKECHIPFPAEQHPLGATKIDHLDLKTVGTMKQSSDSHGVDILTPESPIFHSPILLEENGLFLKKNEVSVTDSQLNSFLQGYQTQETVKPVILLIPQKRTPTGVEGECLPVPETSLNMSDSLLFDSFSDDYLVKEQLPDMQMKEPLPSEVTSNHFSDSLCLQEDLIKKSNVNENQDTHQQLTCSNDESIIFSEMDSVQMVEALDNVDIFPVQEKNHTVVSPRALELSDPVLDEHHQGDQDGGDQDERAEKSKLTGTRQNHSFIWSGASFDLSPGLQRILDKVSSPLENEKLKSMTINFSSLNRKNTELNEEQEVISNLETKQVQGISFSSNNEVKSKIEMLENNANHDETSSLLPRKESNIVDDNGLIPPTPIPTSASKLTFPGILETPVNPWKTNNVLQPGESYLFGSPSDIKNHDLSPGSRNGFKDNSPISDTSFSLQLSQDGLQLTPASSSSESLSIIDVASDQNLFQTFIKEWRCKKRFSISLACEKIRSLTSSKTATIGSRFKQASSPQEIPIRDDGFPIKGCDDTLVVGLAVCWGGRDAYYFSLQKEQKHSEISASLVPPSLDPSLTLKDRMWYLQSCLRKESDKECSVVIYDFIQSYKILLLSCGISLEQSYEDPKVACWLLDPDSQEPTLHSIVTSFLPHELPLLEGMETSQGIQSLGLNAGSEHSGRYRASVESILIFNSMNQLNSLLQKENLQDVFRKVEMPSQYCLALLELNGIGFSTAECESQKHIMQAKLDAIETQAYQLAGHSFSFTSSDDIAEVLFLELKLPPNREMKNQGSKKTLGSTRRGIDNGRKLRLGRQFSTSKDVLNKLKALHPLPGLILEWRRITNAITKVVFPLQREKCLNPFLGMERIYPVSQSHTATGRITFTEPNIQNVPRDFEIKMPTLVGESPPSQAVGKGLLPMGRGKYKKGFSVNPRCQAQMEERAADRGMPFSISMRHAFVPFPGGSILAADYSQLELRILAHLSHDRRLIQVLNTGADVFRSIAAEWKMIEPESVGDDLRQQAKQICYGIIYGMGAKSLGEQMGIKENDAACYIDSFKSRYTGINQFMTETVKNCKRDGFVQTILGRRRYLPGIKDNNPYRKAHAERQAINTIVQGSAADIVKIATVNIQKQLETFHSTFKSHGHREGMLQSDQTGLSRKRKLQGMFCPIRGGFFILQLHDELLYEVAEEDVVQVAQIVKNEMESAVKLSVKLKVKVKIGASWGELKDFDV
| SMILES | remaining activity |
| --- | --- |
| N#Cc1c(O)c2c(-c3ccc(-c4ccccc4O)cc3)csc2[nH]c1=O | 64.5% |
| CC(=O)c1cc2ccccc2oc1=O | 106% |
| CN(C)CCc1c[nH]c2ccc(C[C@H]3COC(=O)N3)cc12 | 103% |
| NC1(C(=O)O)CCCCC1 | 102% |
| CC1(C)[C@@H](O)CC[C@]2(C)[C@H]3C(=O)C=C4[C@@H]5C[C@@](C)(C(=O)O)CC[C@]5(C)CC[C@@]4(C)[C@]3(C)CC[C@@H]12 | 105% |
| Cc1ccc(S(=O)(=O)n2c(N)nc3ccccc32)cc1 | 99.6% |
| COc1ccc(-c2cc(=O)c3c(O)c(OC)c(OC)cc3o2)cc1O | 98.1% |
| CC(C)(C)NC(=O)[C@H]1CC[C@H]2[C@@H]3CC[C@H]4NC(=O)C=C[C@]4(C)[C@H]3CC[C@]12C | 96.6% and 102% |

Series 2 — organism: Sarcocystis neurona; effect on: parasite activity; tested at: 10 µM; time: 96 h
| Compound | activity class |
| --- | --- |
| CC[C@H]1OC(=O)[C@H](C)[C@@H](O[C@H]2C[C@@](C)(OC)[C@@H](O)[C@H](C)O2)[C@H](C)[C@@H](O[C@@H]2O[C@H](C)C[C@H](N(C)C)[C@H]2O)[C@](C)(OC)C[C@@H](C)C(=O)[C@H](C)[C@@H](O)[C@]1(C)O | inactive |
| CN(C)[C@@H]1C(O)=C(C(N)=O)C(=O)[C@@]2(O)C(O)=C3C(=O)c4c(O)ccc(Cl)c4[C@@H](O)[C@H]3C[C@@H]12 | inactive |
| OC[C@H]1O[C@@H](Oc2cc(O)cc(/C=C/c3ccc(O)cc3)c2)[C@H](O)[C@@H](O)[C@@H]1O | inactive |
| CC(=O)NCCCCCCNC(C)=O | inactive |
| CCCc1c(OCCCCc2nnn[nH]2)ccc(C(C)=O)c1O | inactive |
| CCCOc1ccc(C(=O)OCCN(CC)CC)cc1N | inactive |
| Clc1ccc(COC(Cn2ccnc2)c2ccc(Cl)cc2Cl)cc1 (stereo not drawn) | inactive |
| CN(C)c1ccc(O)c2c1C[C@H]1C[C@H]3[C@H](N(C)C)C(O)=C(C(N)=O)C(=O)[C@@]3(O)C(O)=C1C2=O | inactive |
| COc1ccc2c3c1O[C@H]1C[C@@H](O)C=C[C@@]31CCN(C)C2 | inactive |

Series 3 — effect on: cell-free assay; technique: competition with immobilised ligand; tested at: 0.1 µM
Structure (SMILES): C[C@@H]1CN(c2cc(-c3n[nH]c4ccc(OC5(C)CC5)cc34)ncn2)C[C@H](C)O1
| target | remaining binding [%] |
| --- | --- |
| Receptor-type tyrosine-protein kinase FLT3 (FLT3, Homo sapiens, UniProt P36888, D835V) | 73 |
| Calcium/calmodulin-dependent protein kinase kinase 1 (CAMKK1, Homo sapiens, UniProt Q8N5S9) | 100 |
| G protein-coupled receptor kinase 3 (GRK3, Homo sapiens, UniProt P35626) | 91 |
| Maternal embryonic leucine zipper kinase (MELK, Homo sapiens, UniProt Q14680) | 88 |
| Tyrosine-protein kinase ABL1, non-phosphorylated (ABL1, Homo sapiens, UniProt P00519, F317L) | 73 |
| cAMP-dependent protein kinase catalytic subunit alpha (PRKACA, Homo sapiens, UniProt P17612) | 85 |
| Mitogen-activated protein kinase kinase kinase 11 (MAP3K11, Homo sapiens, UniProt Q16584) | 100 |
| Serine/threonine-protein kinase ULK2 (ULK2, Homo sapiens, UniProt Q8IYT8) | 69 |

Series 4 — effect on: enzyme activity; mode: inhibitor; tested at: 0.5 µM; relative to: control
Target: Angiopoietin-1 receptor (TEK, Homo sapiens, UniProt Q02763)
Sequence of UniProt Q02763 (whole entry, looked up): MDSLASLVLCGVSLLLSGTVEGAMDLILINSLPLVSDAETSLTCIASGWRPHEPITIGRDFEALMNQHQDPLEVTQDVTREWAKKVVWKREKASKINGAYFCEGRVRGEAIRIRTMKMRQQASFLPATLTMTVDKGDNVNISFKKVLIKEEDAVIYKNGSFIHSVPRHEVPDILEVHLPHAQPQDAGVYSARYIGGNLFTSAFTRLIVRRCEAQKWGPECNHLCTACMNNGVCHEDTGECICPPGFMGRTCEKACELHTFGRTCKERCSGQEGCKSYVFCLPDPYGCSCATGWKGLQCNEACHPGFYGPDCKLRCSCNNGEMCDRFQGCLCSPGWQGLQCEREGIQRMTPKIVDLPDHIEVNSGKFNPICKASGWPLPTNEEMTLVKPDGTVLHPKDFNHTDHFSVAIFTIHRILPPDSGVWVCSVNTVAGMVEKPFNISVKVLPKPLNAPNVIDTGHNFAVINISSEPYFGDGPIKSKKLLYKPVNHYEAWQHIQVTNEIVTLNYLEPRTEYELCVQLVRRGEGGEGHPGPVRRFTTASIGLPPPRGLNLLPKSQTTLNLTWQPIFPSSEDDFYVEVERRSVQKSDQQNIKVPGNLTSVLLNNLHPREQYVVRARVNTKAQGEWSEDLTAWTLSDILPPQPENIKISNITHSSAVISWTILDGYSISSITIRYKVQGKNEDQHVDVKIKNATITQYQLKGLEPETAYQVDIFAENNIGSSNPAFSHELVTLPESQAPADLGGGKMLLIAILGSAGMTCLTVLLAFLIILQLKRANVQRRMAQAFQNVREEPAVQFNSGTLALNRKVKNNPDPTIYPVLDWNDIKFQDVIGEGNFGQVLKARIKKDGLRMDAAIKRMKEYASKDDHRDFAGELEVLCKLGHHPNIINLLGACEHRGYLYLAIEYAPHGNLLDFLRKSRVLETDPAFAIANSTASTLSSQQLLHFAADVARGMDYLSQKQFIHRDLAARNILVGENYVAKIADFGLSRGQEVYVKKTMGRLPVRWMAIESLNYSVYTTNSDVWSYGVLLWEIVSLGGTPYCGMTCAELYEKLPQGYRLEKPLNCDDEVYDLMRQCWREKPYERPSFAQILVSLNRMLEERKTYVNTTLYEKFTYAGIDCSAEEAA
| SMILES | remaining activity [%] |
| --- | --- |
| COc1ccc(OC)c2c(=S)c3ccccc3[nH]c12 | 100 |
| COc1cc2ncnc(Nc3ccc(F)c(Cl)c3)c2cc1OCCCN1CCOCC1 | 96.2 |
| Cc1nc(-c2ccccc2)c(-c2ccncc2)o1 | 101 |
| NCCNc1ncc(C(N)=O)c(Nc2cccc(C(F)(F)F)c2)n1 | 97.7 |
| Nc1ccc2ncnc(NCCc3ccc(Oc4ccccc4)cc3)c2c1 | 99 |
| CN(C)c1ccc(C=C2C(=O)Nc3ccccc32)cc1 | 102 |
| COc1ccc(C(=O)Nc2sc3c(c2C(N)=O)CCCC3)cc1OC | 96.4 |
| CC(C)[C@H](CO)Nc1nc(Nc2cc(N)cc(Cl)c2)c2ncn(C(C)C)c2n1 | 92.5 |
| Nc1ncnc2n[nH]c(Nc3ccc(F)cc3)c12 | 94.9 |
| N#CC(C#N)=C(N)/C(C#N)=C/c1ccc(O)cc1 | 104 |
| O=c1c2ccccc2[nH]c(=S)n1CCN1CCC(=C(c2ccc(F)cc2)c2ccc(F)cc2)CC1 | 96.1 |
| O=S(=O)(c1cccc2cnccc12)N1CCCNCC1 | 98.4 |
| COc1cc2nccc(Oc3ccc(NC(=S)NC(=O)c4ccccc4C)cc3)c2cc1OC | 90.1 |
| Cn1c2ccccc2c2c3c(c4c5ccccc5n(CCC#N)c4c21)CNC3=O | 104 |

Excerpt of the above (series 4):
| SMILES | remaining activity [%] |
| --- | --- |
| COc1cc2ncnc(Nc3ccc(F)c(Cl)c3)c2cc1OCCCN1CCOCC1 | 96.2 |
| N#CC(C#N)=C(N)/C(C#N)=C/c1ccc(O)cc1 | 104 |
| CN(C)c1ccc(C=C2C(=O)Nc3ccccc32)cc1 | 102 |
